Assay results from different studies.
± marks the error that the study gave.

CCCC(C(=O)c1ccc2c(c1)OCO2)N1CCCC1.Cl (racemic) — core body temperature (male Sprague-Dawley rat; subcutaneous, 4 mg/kg, 40 min): no effect
OCc1ncc2n1-c1ccc(Cl)cc1C(c1ccccc1F)=NC2 — AUCinf decrease (healthy volunteers, plasma; dose not given, with: momelotinib multiple-dose; reference: compound alone): 16%
C#Cc1ccc2c(c1)C(c1ccccn1)=NCc1c(-c3cnco3)ncn1-2 — metabolite peak area share (CD-1 mouse hepatocytes; 2 µM, 4 h, 37 °C): 60.5%
C/C=C1/CN2CC[C@]34C(=C(C(=O)OC)[C@H]1C[C@H]23)Nc1ccc(Br)cc14 — rotarod latency (CD-1 mouse; subcutaneous, 10 mg/kg, 40 min; reference: baseline): ~50%
Cc1ncc2n1-c1ccc(Cl)cc1C(c1ccccc1F)=NC2 — gastrointestinal adverse events (healthy humans; oral, dose not given): 0%
Cc1ncc2n1-c1ccc(Cl)cc1C(c1ccccc1F)=NC2 — Tmax (healthy volunteers, plasma; oral, 5 mg, day 11, with: momelotinib, once daily 200 mg, days 4-11): 1 h
COC(=O)[C@@H]1[C@H]2CC[C@@H](C[C@@H]1O)N2C — AUC(0-inf) (LC-MS/MS; Sprague-Dawley rat, whole blood; intraperitoneal, 20 mg/kg of cocaine): 530 ± 29.8 ng·h/mL
Cc1ncc2n1-c1ccc(Cl)cc1C(c1ccccc1F)=NC2 — mean residence time (wild-type mice, plasma; intravenous, 0.3 mg/kg, with: 3-day PCN 10 mg/kg): 0.585 ± 0.182 h
COc1ccc(Nc2cc(C(=O)NCCCN3CCN(c4ccccc4F)CC3)c3ccccc3n2)c(OC)c1 — cytotoxicity efficacy (Vero-E6; CellTiter-Glo ATP; concentration not given, 72 h, second round 5-point; reference: DMSO 0%, hyamine -100%, more negative, more toxic): -31.5%
CCCCCCCCCCC(=O)O[C@H]1CC[C@H]2[C@@H]3CCC4=CC(=O)CC[C@]4(C)[C@H]3CC[C@]12C — t1/2 (measured: testosterone; human, plasma; oral, 237 mg): 11.9 h
COc1cccc(C2(O)CCCCC2CN(C)C)c1 (centres unmarked) — absorption rate constant (joint PK model; human, whole blood; oral, one-compartment metabolite model): 4.56 ng/h
C[C@]12CC[C@H]3[C@@H](CCC4=CC(=O)CC[C@@]43C)[C@@H]1CC[C@@H]2O — recovery (lipid PAMPA; artificial lipid membrane; 10 µM, 16 h): 88.6%
CC(=O)Oc1ccc2c3c1O[C@H]1[C@@H](OC(C)=O)C=C[C@H]4[C@@H](C2)N(C)CC[C@@]341 — AUC(0-inf) (LC-MS/MS; Sprague-Dawley rat, male, whole blood; intraperitoneal, 10 mg/kg): 4 ± 0.667 ng·h/mL
CN/C(=N\[N+](=O)[O-])NCc1cnc(Cl)s1 — recovery (soil; 28 days, nominal 3.3): 63.6%
O=C(O)CCC(CP(=O)(O)O)C(=O)O (centres unmarked) — AUC(0-inf) (Wistar rat, male, plasma; ip, 100 mg/kg): 210000 ng·h/mL
COc1ccc2c3c1O[C@H]1C(=O)C=C[C@@]4(O)[C@@H](C2)N(C)CC[C@]314 — Δlog K, 14-hydroxylation effect (pH-potentiometric titration; reference: O-methyl derivative): 0.8 log units
CCCC(C(=O)c1ccc(O)c(OC)c1)N1CCCC1 (centres unmarked) — brain-to-plasma ratio (rat; subcutaneous, 2 mg/kg MDPV, 40 min): 0.3 ± 0.1
Cc1ncc(OC[C@@]2(c3cccc(F)c3)C[C@H]2C(=O)Nc2ccc(F)cn2)c(C)n1 — absorption rate constant (population PK base model; human, plasma; oral, capsule): 0.526 h⁻¹
CCN(CC)C(=O)[C@@H]1C=C2c3cccc4[nH]cc(c34)C[C@H]2N(C)C1 — List of Complaints score (measured: numbness of hands and feet; healthy volunteers; dose not given, 12 to 24 h; reference: placebo, direction not given): 0
COc1ccc2c3c1O[C@H]1[C@@H](O)C=C[C@@]4(O)[C@@H](C2)N(C)CC[C@]314 — Δlog K, 14-hydroxylation effect (pH-potentiometric titration; reference: O-methyl derivative): 0.78 log units
Cc1ccc(Nc2ccnc(N3CCC(C(=O)NCCCc4ccccc4)CC3)n2)cc1 — cytotoxicity efficacy (Vero-E6; CellTiter-Glo ATP; concentration not given, 72 h, second round 5-point; reference: DMSO 0%, hyamine -100%, more negative, more toxic): -30.4%
COC(=O)[C@H]1[C@@H](OC(=O)c2ccccc2)C[C@@H]2CC[C@H]1N2 — AUC(0-inf) (LC-MS/MS; Sprague-Dawley rat, whole blood; intraperitoneal, 20 mg/kg of cocaine): 113 ± 6.67 ng·h/mL
CCC(CC)COC(=O)[C@H](C)N[P@](=O)(OC[C@H]1O[C@@](C#N)(c2ccc3c(N)ncnn23)[C@H](O)[C@@H]1O)Oc1ccccc1 — participants with hot flush (human; intravenous, 100 mg): 0%
O=C1c2c(O)c(=O)ccn2N([C@@H]2c3ccccc3SCc3c2ccc(F)c3F)[C@@H]2COCCN12 — trough concentration (BALB/c mouse; subcutaneous, 0.25 mg/kg q24h): 0.0818 ng/mL
OCc1ncc2n1-c1ccc(Cl)cc1C(c1ccccc1F)=NC2 — AUC(0-t) (human, plasma; oral, 7.5 mg of midazolam, day 26, arithmetic mean, no amenamevir): 43 ng·h/mL
CCCC(C(=O)c1ccc(O)c(O)c1)N1CCCC1 (centres unmarked) — plasma concentration (LC-MS/MS; rat, trunk blood plasma; subcutaneous, 1 mg/kg MDPV, 240 min): 14.4 ± 1.3 ng/mL

Some of these lines once more:
Cc1ncc2n1-c1ccc(Cl)cc1C(c1ccccc1F)=NC2 — gastrointestinal adverse events (healthy humans; oral, dose not given): 0%
Cc1ncc2n1-c1ccc(Cl)cc1C(c1ccccc1F)=NC2 — Tmax (healthy volunteers, plasma; oral, 5 mg, day 11, with: momelotinib, once daily 200 mg, days 4-11): 1 h
COC(=O)[C@@H]1[C@H]2CC[C@@H](C[C@@H]1O)N2C — AUC(0-inf) (LC-MS/MS; Sprague-Dawley rat, whole blood; intraperitoneal, 20 mg/kg of cocaine): 530 ± 29.8 ng·h/mL
Cc1ncc2n1-c1ccc(Cl)cc1C(c1ccccc1F)=NC2 — mean residence time (wild-type mice, plasma; intravenous, 0.3 mg/kg, with: 3-day PCN 10 mg/kg): 0.585 ± 0.182 h
